# Results collected from several papers.
# Protocols differ between the studies behind these lines. Numbers after ± are the reported error.
# CA2: Carbonic anhydrase 2 (CA2, Homo sapiens, UniProt P00918)
# CA2 A65S/F130A/I91T/L203N/N67K/V134S: Carbonic anhydrase 2 (CA2, Homo sapiens, UniProt P00918, A65S/F130A/I91T/L203N/N67K/V134S)
SMILES,target,assay,conditions,quantity,value
Cc1ccc(S(=O)(=O)NC(C)c2ccccc2)cc1 (stereo not drawn),CA2,"enzyme activity, inhibitor",,IC50,1.29 µM
CC(C)c1ccc2c(c1)CC[C@H]1[C@](C)(C(=O)O)CCC[C@]21C,CA2,"CO2 hydration activity, inhibitor, stopped-flow","pH 7.4, 25 °C",IC50,0.52 ± 0.04 µM
CC(=O)Nc1ncc(S(N)(=O)=O)s1,CA2,"enzyme activity, inhibitor",,Ki,0.0972 µM
NS(=O)(=O)c1ccc(N/N=C2\C(=O)N(CC(=O)Nc3ccccc3Br)c3ccccc32)cc1,CA2,,,Ki,0.42 µM
CC(=O)Nc1ccc(S(=O)(=O)N2CCN(C(=O)c3cc4ccccc4oc3=O)CC2)cc1,CA2,,,Ki,> 100 µM
COc1ccc(O)c(C2=NN(c3ccc(S(N)(=O)=O)cc3)C(c3ccc(Br)cc3)C2)c1 (stereo not drawn),CA2,"enzyme activity, inhibitor, absorbance",,IC50,1.31 µM
NS(=O)(=O)c1c(F)c(F)c(S(=O)(=O)CCc2ccccc2)c(NC2CCCCCCCCCCC2)c1F,CA2 A65S/F130A/I91T/L203N/N67K/V134S,,pH 7,Kd,0.025 µM
COc1cccc(/C=N/NC(=O)CSc2nc3ccccc3c(=O)n2CCc2ccc(S(N)(=O)=O)cc2)c1,CA2,"enzyme activity, inhibitor, stopped-flow",,Ki,0.0647 µM
Cc1cc(S(N)(=O)=O)c(Cl)cc1NC1CCCCC1,CA2 A65S/F130A/I91T/L203N/N67K/V134S,,pH 7,Kd,2 µM
NS(=O)(=O)c1ccc(CCn2c(SCC(=O)N/N=C/c3ccccc3O)nc3ccccc3c2=O)cc1,CA2,"enzyme activity, inhibitor, stopped-flow",,Ki,0.0275 µM
NS(=O)(=O)c1ccc(NC(=O)NN[C@@H]2O[C@H](CO)[C@@H](O)[C@H](O)[C@H]2O)cc1,CA2,"enzyme activity, inhibitor",,IC50,0.015 µM
NS(=O)(=O)c1c(F)c(F)c(SCCc2ccc(C(=O)O)cc2)c(F)c1F,CA2 A65S/F130A/I91T/L203N/N67K/V134S,,pH 7,Kd,0.175 µM
NS(=O)(=O)c1ccc(NC(=O)NN[C@@H]2O[C@H](CO)[C@@H](O)[C@H]2O)cc1,CA2,"enzyme activity, inhibitor",,IC50,0.047 µM
COc1cc(-c2ccnc3nc(Nc4ccc(S(N)(=O)=O)cc4)nn23)cc(OC)c1OC,CA2,"enzyme activity, inhibitor, stopped-flow",,Ki,0.17 µM
Cc1ccc(S(=O)(=O)Nc2ccccc2Sc2ccccc2)cc1,CA2,"enzyme activity, inhibitor",,IC50,1.02 µM
COc1c(C)occc1=S,CA2,"esterase activity, inhibitor","10 min preincubation, pH 8.0, together with: p-nitrophenyl acetate",Ki,> 50000 µM
NS(=O)(=O)c1c(F)c(F)c(S(=O)(=O)CCO)c(NC2CCCCCCCCCCC2)c1F,CA2 A65S/F130A/I91T/L203N/N67K/V134S,,pH 7,Kd,0.00125 µM
NS(=O)(=O)c1ccc(NC(=O)NN[C@@H]2OC[C@H](O)[C@H](O)[C@H]2O)cc1,CA2,"enzyme activity, inhibitor",,IC50,0.045 µM
COC(=O)CCCNC(=O)c1cc(S(N)(=O)=O)c(Cl)cc1NC1CCCCC1,CA2 A65S/F130A/I91T/L203N/N67K/V134S,,pH 7,Kd,0.017 µM
C#CCCC1(CCOC(=O)NCCc2ccc(S(N)(=O)=O)cc2)N=N1,CA2,"enzyme activity, inhibitor, absorbance",,IC50,2.35 µM
NS(=O)(=O)c1c(F)c(F)cc(F)c1NC1CCCCCCC1,CA2 A65S/F130A/I91T/L203N/N67K/V134S,,pH 7,Kd,4 µM
Cc1cc(C)cc(C(=O)Nc2cccc(S(N)(=O)=O)c2)c1,CA2,"enzyme activity, inhibitor, absorbance",,IC50,0.93 µM
CNc1c(F)c(S(N)(=O)=O)c(F)c(F)c1S(=O)(=O)CCc1ccccc1,CA2 A65S/F130A/I91T/L203N/N67K/V134S,,pH 7,Kd,0.29 µM
COc1ccc(/C(C)=N/NC(=O)CSc2nc3ccccc3c(=O)n2CCc2ccc(S(N)(=O)=O)cc2)cc1,CA2,"enzyme activity, inhibitor, stopped-flow",,Ki,0.126 µM

# For quick reference, copied from above:
SMILES,target,assay,conditions,quantity,value
CNc1c(F)c(S(N)(=O)=O)c(F)c(F)c1S(=O)(=O)CCc1ccccc1,CA2 A65S/F130A/I91T/L203N/N67K/V134S,,pH 7,Kd,0.29 µM
NS(=O)(=O)c1ccc(NC(=O)NN[C@@H]2O[C@H](CO)[C@@H](O)[C@H](O)[C@H]2O)cc1,CA2,"enzyme activity, inhibitor",,IC50,0.015 µM
NS(=O)(=O)c1ccc(N/N=C2\C(=O)N(CC(=O)Nc3ccccc3Br)c3ccccc32)cc1,CA2,,,Ki,0.42 µM
